# Assay results from different studies.
# Protocols differ between the studies behind these lines.
# Organism: Klebsiella pneumoniae
Structure (SMILES),test,system,conditions,MIC
CC(N)C(O)CCCCCCCCCCCCCCC(=O)CCCCCCCC(O)C(C)N (stereo not shown),resazurin,,,> 50 µM
CC1(C)[C@H](NC(=O)/C(=N\OCC(=O)N2CCC[C@@H]2C(=O)O)c2nsc(N)n2)C(=O)N1OS(=O)(=O)O,agar dilution,"2146, NDM-1",,> 64 µg/mL
CC[C@H](C)[C@H](NC(=O)[C@@H](CCCNC(=N)N)NC(=O)[C@H](CCCNC(=N)N)NC(=O)[C@@H](NC(=O)[C@H](Cc1c[nH]c2ccccc12)NC(=O)[C@H](CCCNC(=N)N)NC(=O)[C@@H]1CCCN1C(=O)[C@H](CCCNC(=N)N)NC(=O)[C@@H]1CCCN1C(=O)[C@H](CC(C)C)NC(=O)[C@H](Cc1ccc(O)cc1)NC(=O)[C@@H]1CCCN1C(=O)[C@@H]1CCCN1C(=O)[C@H](CCCCN)NC(=O)[C@H](CC(=O)O)NC(=O)[C@@H](N)C(C)C)[C@@H](C)O)C(=O)N[C@@H](Cc1ccc(O)cc1)C(=O)N[C@@H](CC(N)=O)C(=O)N[C@H](CCCNC(=N)N)C(N)=O,broth microdilution,DSM 681,"18 h, 37 °C, 25% MHB2",4 µg/mL
CCCCCCCCCCCCCCCCCCn1cc(CN(CCC(=O)NCCN(CCC(=O)NCCN(CCC(=O)NCCN(C)C)CCC(=O)NCCN(C)C)CCC(=O)NCCN(CCC(=O)NCCN(C)C)CCC(=O)NCCN(C)C)CCC(=O)NCCN(CCC(=O)NCCN(CCC(=O)NCCN(C)C)CCC(=O)NCCN(C)C)CCC(=O)NCCN(CCC(=O)NCCN(C)C)CCC(=O)NCCN(C)C)nn1,,"ATCC BAA-1705 KPC, LB broth",18 h,> 96 µg/mL
CCCCCCCC(=O)N[C@@H](CCN)C(=O)N[C@H](C(=O)N[C@@H](CCN)C(=O)N[C@H]1CCNC(=O)[C@H]([C@@H](C)O)NC(=O)[C@H](CCN)NC(=O)[C@H](CCN)NC(=O)[C@H](Cc2ccccc2)NC(=O)[C@@H](CCCc2ccccc2)NC(=O)[C@H](CCN)NC1=O)[C@@H](C)O,broth microdilution,"ATCC 13883, colistin-susceptible",,2 to 4 µg/mL
CC[C@H](C)[C@H](NC(=O)[C@H](CCCCN)NC(=O)[C@H](Cc1c[nH]c2ccccc12)NC(=O)[C@H](Cc1c[nH]c2ccccc12)NC(=O)[C@H](CCCCN)NC(=O)[C@H](CCCCN)NC(=O)[C@H](CCCCN)NC(=O)[C@H](Cc1c[nH]c2ccccc12)NC(=O)[C@H](CCCCN)NC(=O)[C@H](CCCCN)NC(=O)[C@H](Cc1c[nH]c2ccccc12)NC(=O)[C@H](CCCCN)NC(=O)[C@H](CCCCN)NC(=O)[C@@H](NC(=O)[C@@H](NC(=O)[C@H](CCCCN)NC(=O)[C@@H](N)CCCNC(=N)N)[C@@H](C)CC)[C@@H](C)CC)C(=O)N[C@@H](Cc1c[nH]c2ccccc12)C(=O)N[C@@H](Cc1c[nH]c2ccccc12)C(=O)N[C@@H](CCCCN)C(N)=O,broth microdilution,10145,,1.25 µg/mL
CC[C@H](C)[C@H](NC(=O)[C@H](CCCCN)NC(=O)[C@H](CCCCN)NC(=O)[C@H](Cc1ccccc1)NC(=O)[C@H](Cc1ccccc1)NC(=O)[C@H](CCCCN)NC(=O)[C@H](CCCCN)NC(=O)[C@H](Cc1ccccc1)NC(=O)[C@H](CCCNC(=N)N)NC(=O)[C@@H](N)CCCCN)C(=O)N[C@@H](CCCCN)C(=O)N[C@@H](CCCCN)C(=O)N[C@@H](CO)C(=O)N[C@H](C(=O)N[C@@H](CCCCN)C(=O)N[C@@H](CCCCN)C(=O)N[C@@H](CCCNC(=N)N)C(=O)N[C@H](C(=O)N[C@@H](CCCCN)C(=O)N[C@@H](CCCCN)C(=O)N[C@@H](CC(C)C)C(=O)N[C@@H](Cc1ccccc1)C(=O)N[C@@H](CCCCN)C(=O)N[C@@H](CCCCN)C(=O)N1CCC[C@H]1C(=O)N[C@@H](CCCNC(=N)N)C(=O)N[C@H](C(=O)N[C@H](C(=O)N1CCC[C@H]1C(=O)N[C@H](C(=O)N[C@@H](CO)C(=O)N[C@H](C(=O)N1CCC[C@H]1C(=O)N[C@@H](Cc1ccccc1)C(=O)O)[C@@H](C)CC)[C@@H](C)CC)[C@@H](C)CC)C(C)C)C(C)C)C(C)C,broth microdilution,K1 clinical isolate,20 h,4 µg/mL
CC[C@H](C)[C@H](NC(=O)[C@H](Cc1c[nH]c2ccccc12)NC(=O)[C@H](Cc1ccc(O)cc1)NC(=O)[C@H](CCCCN)NC(=O)[C@H](CC(C)C)NC(=O)[C@H](CO)NC(=O)[C@@H](N)Cc1ccccc1)C(=O)N[C@@H](CCCNC(=N)N)C(=O)N[C@@H](Cc1ccc(O)cc1)C(=O)N[C@@H](CCCCN)C(=O)N[C@@H](CCCNC(=N)N)C(=O)N[C@@H](CCC(N)=O)C(=O)NCC(=O)N[C@@H](C)C(=O)N[C@@H](C)C(=O)N[C@@H](CCCNC(=N)N)C(=O)N[C@@H](Cc1ccccc1)C(N)=O,broth dilution,ATCC 700603,,> 100 µM
N=C(N)NCCC[C@@H]1NC(=O)[C@H](CCCNC(=N)N)NC(=O)[C@H](CCCNC(=N)N)NC(=O)[C@@H](CCCNC(=N)N)NC(=O)[C@H](Cc2ccc3ccccc3c2)NC(=O)[C@H](Cc2ccc3ccccc3c2)NC(=O)[C@H](Cc2ccc3ccccc3c2)NC1=O,,"1188718, multidrug-resistant",,> 64 µg/mL
COc1ccc2ccc(O)c(/C=N/[C@H]3CCCC[C@H]3/N=C/c3ccccc3O)c2c1,"bacterial growth, broth microdilution",carbapenem-resistant,,> 40 µM

# A few entries again:
Structure (SMILES),test,system,conditions,MIC
N=C(N)NCCC[C@@H]1NC(=O)[C@H](CCCNC(=N)N)NC(=O)[C@H](CCCNC(=N)N)NC(=O)[C@@H](CCCNC(=N)N)NC(=O)[C@H](Cc2ccc3ccccc3c2)NC(=O)[C@H](Cc2ccc3ccccc3c2)NC(=O)[C@H](Cc2ccc3ccccc3c2)NC1=O,,"1188718, multidrug-resistant",,> 64 µg/mL
CC[C@H](C)[C@H](NC(=O)[C@@H](CCCNC(=N)N)NC(=O)[C@H](CCCNC(=N)N)NC(=O)[C@@H](NC(=O)[C@H](Cc1c[nH]c2ccccc12)NC(=O)[C@H](CCCNC(=N)N)NC(=O)[C@@H]1CCCN1C(=O)[C@H](CCCNC(=N)N)NC(=O)[C@@H]1CCCN1C(=O)[C@H](CC(C)C)NC(=O)[C@H](Cc1ccc(O)cc1)NC(=O)[C@@H]1CCCN1C(=O)[C@@H]1CCCN1C(=O)[C@H](CCCCN)NC(=O)[C@H](CC(=O)O)NC(=O)[C@@H](N)C(C)C)[C@@H](C)O)C(=O)N[C@@H](Cc1ccc(O)cc1)C(=O)N[C@@H](CC(N)=O)C(=O)N[C@H](CCCNC(=N)N)C(N)=O,broth microdilution,DSM 681,"18 h, 37 °C, 25% MHB2",4 µg/mL
